Experimental data from different studies.
Each numbered part is a random draw from the data of one study; scales do not carry over between parts.

Block 1 — technique: RNA Bind-n-Seq; molecule type: RNA; sample: in vitro; concentration: 365 nM; relative to: no-protein control; direction: higher = stronger binding; quantity: RBNS enrichment (R)
Target: RNA binding protein fox-1 homolog 2, RRM domain, GST-SBP tag (RBFOX2, Homo sapiens, UniProt O43251-10, residues 100-194)
Notes: natural RNA segment, single round, ends assumed
Constant ends, left off below: GGGAGUUCUACAGUCCGACGAUC … UGGAAUUCUCGGGUGCCAA
Construct (chain): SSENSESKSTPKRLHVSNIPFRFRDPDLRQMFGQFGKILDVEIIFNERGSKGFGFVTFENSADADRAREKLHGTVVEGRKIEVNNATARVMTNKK
UAAGAGAGAAAAUUAAGUCUACUGAUUUGGUAUAGGUAAAUGGACAUUAAACUUUUUUAAAGUAAAGGAGAUGGUAGAUACCGUUAGAUUAUAGUCUUGAGGUUCAUGUG: 1.42
CCCUCCACAUCUGAGGUGGCUCAUUCCCAUCACACACAGAUUGUCCUGGUGUUCAUUUCAAGGCCAGUGUUCAGCAGCAGCGUUUGGAAAGCAGGUUCUGUGGGACCCCC: 0.226
CUCACACCUGUAAUCCCAACAUUUUGGGAGCCCAAGGCGGCCGGACCACCUGAGGUCGGGAGUUCAAGACCAGCCUGACCAACAUGGAGAAACCCUGUCUCUACUAAAAA: 0.317
UGGGCCCAUGGGGCUGGACAGGAUGAGGUCACCAUUGGGCCUGAGGGCCAGGGGUCUCCAGCAUGACUUGUUUGCUCUCCCUCCCCCACCCUCACUCCUACCUCCCAUAG: 5.76
AAAGCUGAGACAUUGUCCCCAACUCUUCUUGAUGUAUUUAUUAAUUUAGAGUUUUACCAGCUAUUUAUUGAGUACCCUGUAUAUAGUAGAUCAGUGAGGAGGUGAAUGUA: 0.797
UGCUGCUCCUCUAGGCCUCACUCAACAACCAAGCGCCUGGAGGACGGGACAGAUGGACAGACAGCCACCCUGAGAACCCCUCUGGGAAAAUCUAUUCCUGCCACCACUGG: 0.277
AGGCAGAGAGGUGCCACUUGGCCUACUUGCUUCCUGUCCCCAAGACAGUCCUUUUCUUCUGAAGUAAAUAUACAUAUAUAAAUAAAUGUAUAAAUACUGCUUUGUAUCUG: 0.375
ACUGAGCCAGGCAGGAAGGCAGCAGCCUUCAGCCUCUCUGGCCCACUCGGACAACUUCCCAAGGCCGCCUCCUGCUAGCAAGAACAGAGUCCACCCUCCUCUGGAUAUUG: 0.218

Block 2 — technique: competition protein-binding microarray; molecule type: double-stranded DNA, one strand shown; sample: in vitro; concentration: 2 µM; added: Cbf1 competitor, 0.05 µM; direction: higher = stronger binding; quantity: fluorescence intensity; constant ends, left off below: … GTCTTGATTCGCTTGACGCTGCTG
Target: Phosphate system positive regulatory protein PHO4, full length, GST-tagged (PHO4, Saccharomyces cerevisiae, UniProt P07270, residues 1-312)
Notes: whole 60-bp probe, lowest competitor level
Construct (chain): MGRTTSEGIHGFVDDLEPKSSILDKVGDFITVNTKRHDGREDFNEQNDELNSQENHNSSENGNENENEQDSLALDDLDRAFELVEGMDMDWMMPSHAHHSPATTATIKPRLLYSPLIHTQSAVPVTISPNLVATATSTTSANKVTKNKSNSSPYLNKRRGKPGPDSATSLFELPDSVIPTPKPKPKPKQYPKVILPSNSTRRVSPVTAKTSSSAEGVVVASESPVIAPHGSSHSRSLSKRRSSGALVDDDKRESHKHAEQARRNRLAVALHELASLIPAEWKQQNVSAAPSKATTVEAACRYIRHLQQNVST
GAGTTTGTTTTCCTTCACATGATGAAGAAGGTTTGA: 4880 a.u.
GACTAGGTTTGAAAGCACGTTGGAAGACATACGGAA: 13400 a.u.
AAATTACTAAGTTGTCACTTAACTTACCCCGTATGA: 3080 a.u.
ACTCAGTTACTCAGTCAGCTGATGCGATGCGATGTT: 4740 a.u.
AAGCTAAAGCAGAGGAACGTGACGGACGCGCATTAA: 12900 a.u.
GTCCTGGAAGCCTGACGCGTGCGATCTTCTCCTCCC: 9490 a.u.
AGATCAATTATCCGAAGCGGGTCCCAACCCGGAAAT: 2640 a.u.
ACCGTATATATACTACACGCACACACACCAACACAA: 9210 a.u.
GAAGTCCTTATTCCGCACGTTGCTACCGCCGGCTTG: 11900 a.u.
CCTTGTTTACCGTTCGCCGTGATGGCTCCTTGAGCA: 3960 a.u.
AATCGTTGGCACCATCACGGGATTTTGACGAGGGGA: 4860 a.u.
AGCTTGAGCCAAGACATCGTGACAAACAATAATAGG: 9030 a.u.
CTAACGTTGGAGGATCCCGTGACGGTGGAGTATCTC: 5210 a.u.
TGCGTATTCGCCCGACACGTGATGGGCGCAGATTGG: 14400 a.u.
CTCTCGATGGGCCATCACGTGAAGTAGGCACTATCA: 11800 a.u.
CGTCCTAGTGATTGTCACCAAACTTCCATGAGGAAG: 4450 a.u.
CGATGTTGAGGAAGTCCTGTGATATTTCAAATGTGG: 3750 a.u.
CTTTCCCGATCTTGACCAGTGGGTGTAGCACATTTG: 4610 a.u.
TCGGTACGCGGCTCTAGCGTGCTTTTTGGAAGGGCA: 4640 a.u.

Block 3 — technique: protein-binding microarray; molecule type: double-stranded DNA, one strand shown; sample: in vitro; concentration: 2200 nM top; notes: 60-bp whole probe; added: salmon DNA 0.4 mg/ml; relative to: random background probes; direction: higher = stronger binding; quantity: fitted relative affinity; constant ends, left off below: GCCTAGCAC … GTCTTGATTCGCTTGACGCTGCTG
Target: Interferon regulatory factor 7, full length, phosphomimetic (IRF7, Homo sapiens, UniProt Q92985, residues 1-503, S471D/S472D/S475D/S476D/S477D/S483D/S484D/S487D)
Residues (chain): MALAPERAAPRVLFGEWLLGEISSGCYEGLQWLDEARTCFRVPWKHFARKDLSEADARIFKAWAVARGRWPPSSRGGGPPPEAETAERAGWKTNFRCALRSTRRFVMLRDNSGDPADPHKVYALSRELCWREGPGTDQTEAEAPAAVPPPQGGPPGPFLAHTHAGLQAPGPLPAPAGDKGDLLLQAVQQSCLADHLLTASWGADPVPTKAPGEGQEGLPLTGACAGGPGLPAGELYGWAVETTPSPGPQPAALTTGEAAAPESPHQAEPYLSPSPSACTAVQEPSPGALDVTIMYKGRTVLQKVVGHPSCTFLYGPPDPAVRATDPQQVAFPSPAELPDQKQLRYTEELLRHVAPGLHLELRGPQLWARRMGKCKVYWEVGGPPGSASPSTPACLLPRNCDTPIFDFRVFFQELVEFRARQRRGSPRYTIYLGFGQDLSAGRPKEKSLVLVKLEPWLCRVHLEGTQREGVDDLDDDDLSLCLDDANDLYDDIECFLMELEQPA
TCATTTTTCCCTCTGGAAAAGTGCTAG: 2.35 z-score
TTAGGTCTCGGTTTCGGTTAGTGCTAG: 7.13 z-score
TTAGGACTGGGAATCGGTTAGTGCTAG: -0.246 z-score
TGAACTTCGGCCTCTAGGTTTGTGCTA: -0.0795 z-score
TATTCCCCATCACTCACTCTGTGCTAG: 2.4 z-score
CTCACCTCAGCCTCCCAAGTGTGCTAG: 0.544 z-score
GACGGTTTCCTTATCGTGACGTGCTAG: 2.45 z-score
TCAATCCTCTCACCTCAGACTGTGCTA: 1.15 z-score
GACGGACTGGACTATAGGGACGTGCTA: -0.999 z-score
TCACCACTCCAGTTCTGACTGTGCTAG: 1.4 z-score
TGTTATTAAAATTTCATGAAGTGCTAG: -0.209 z-score
TTAGGTATCGGACTGGATTAGTGCTAG: 0.0319 z-score
TTAGATTTCGGGTATCGATTAGTGCTA: 2.77 z-score
AACCATTTTGTTTTTCATTAGTGCTAG: 2.05 z-score
GACGGTCTCCATCTCCTGACGTGCTAG: 0.994 z-score
TACGGTTTCCTTATCCTGACGTGCTAG: 3.28 z-score
TTAGGACTGCTACTGCTATAGTGCTAG: -0.205 z-score
GACGGTCTCGGACTGCGGACGTGCTAG: -0.332 z-score
CAAACAGAGACCCGGCAAGTGTGCTAG: -0.32 z-score

Block 4 — technique: protein binding microarray; molecule type: double-stranded DNA, one strand shown; sample: in vitro; concentration: not given; relative to: not given; direction: higher = stronger binding; quantity: E-score
Target: Histone acetyltransferase KAT6A, winged helix 2, GST fusion (KAT6A, Homo sapiens, UniProt Q92794, residues 85-181)
Notes: 8-mer, flanks averaged, mean of 2 arrays, mostly near background
Target sequence (chain): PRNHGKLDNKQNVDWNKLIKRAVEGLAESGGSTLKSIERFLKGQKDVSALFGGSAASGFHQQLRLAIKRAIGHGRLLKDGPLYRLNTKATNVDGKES
CCCGCCCG: 0.22
GGCCACCA: 0.0649
CTGTCTCA: -0.117
ACCACTAT: -0.167
CGGACCTC: 0.155
GACTCTCA: -0.181
GAAATGTA: -0.0316
GATTATTA: -0.0759
TCTGGGCA: 0.117
CATCAACG: 0.0893
CAGAATGA: -0.0616
AGCAACAT: 0.0652
ATGGGGAA: -0.0332
CTAGGGGC: -0.0709
CGGCTCAC: -0.0225
GATGTGAA: -0.0411
GAGTGGAC: -0.0289
CACAAATA: 0.0887

Some of these lines once more (block 3):
TATTCCCCATCACTCACTCTGTGCTAG: 2.4 z-score
CTCACCTCAGCCTCCCAAGTGTGCTAG: 0.544 z-score
GACGGTTTCCTTATCGTGACGTGCTAG: 2.45 z-score
TCAATCCTCTCACCTCAGACTGTGCTA: 1.15 z-score
GACGGACTGGACTATAGGGACGTGCTA: -0.999 z-score
TCACCACTCCAGTTCTGACTGTGCTAG: 1.4 z-score
TGTTATTAAAATTTCATGAAGTGCTAG: -0.209 z-score
TTAGGTATCGGACTGGATTAGTGCTAG: 0.0319 z-score
TTAGATTTCGGGTATCGATTAGTGCTA: 2.77 z-score
AACCATTTTGTTTTTCATTAGTGCTAG: 2.05 z-score
